Assay results of several laboratories.
Each line is one published result; not all experiments were run side by side. ± marks the error that the study gave.

CC[C@H]1[C@@H](O)[C@@H]2[C@H](CC[C@]3(C)[C@@H]([C@H](C)CCOS(=O)(=O)[O-])CC[C@@H]23)[C@@]2(C)CC[C@@H](O)C[C@@H]12.[Na+] — plasma total cholesterol (ob/ob NASH mice, plasma; oral, 3 mg/kg once daily, baseline before treatment, 8 wk study): 10.3 ± 0.8 mmol/L
CC[C@H](C)[C@@H]1NC(=O)[C@H](CCCNC(=N)N)NC(=O)[C@H](C)NC(=O)CNC(=O)[C@H](CCCCN)NC(=O)[C@H](CCCNC(=N)N)NC(=O)[C@H](C(C)C)NC(=O)[C@H](C)NC(=O)[C@@H]2CSSC[C@@H]3NC(=O)[C@H](CO)NC(=O)[C@H]([C@@H](C)O)NC(=O)CNC(=O)[C@H](CCCNC(=N)N)NC(=O)[C@@H]4CCCN4C(=O)[C@H](CSSC[C@@H](C(=O)N[C@@H](CC(C)C)C(=O)O)NC(=O)[C@H](CCCCN)NC(=O)[C@H](CC(C)C)NC(=O)[C@H](CC(C)C)NC(=O)[C@H](Cc4ccccc4)NC(=O)[C@H](CO)NC(=O)[C@H](CC(N)=O)NC3=O)NC(=O)[C@H](CC(=O)O)NC(=O)[C@H](CSSC[C@H](NC(=O)[C@H](CCSC)NC(=O)[C@@H]3CCCN3C(=O)[C@@H](NC(=O)[C@H](CCC(N)=O)NC(=O)CNC(=O)[C@H](Cc3ccc(O)c(I)c3)NC(=O)[C@@H](N)CCCCN)C(C)C)C(=O)N[C@@H](CC(=O)O)C(=O)N[C@@H](C)C(=O)NCC(=O)N[C@@H](CCC(=O)O)C(=O)N[C@@H](CCC(N)=O)C(=O)N2)NC(=O)[C@H](CC(C)C)NC(=O)[C@H](CCCCN)NC(=O)CNC1=O [iodine-125 labelled] — Bmax (CART peptide binding site (rat); differentiated PC-12 membranes; 1 h, room temperature): 108 ± 8.4 fmol/mg protein
Cn1c(=O)oc2ccc(-c3ccc(CC(C#N)NC(=O)C4CNCCCO4)c(F)c3)cc21 (stereo not drawn) — ALT increased incidence (human; oral, 40 mg once daily, TEAE, multiple ascending dose): 11.1%
COc1ccc(-c2cc(C(=O)Nc3cccc(Cl)c3C)no2)cc1O — calcium retention capacity ratio (mitochondrial permeability transition pore, mouse; isolated mouse liver mitochondria; 1.56 µM; reference: untreated): 9.59 ± 0.85
CCOC(=O)CNC(=O)CN1C(=O)S/C(=C\c2ccc(OC)c(O)c2)C1=O — IC50 (Leishmania donovani; parasite growth; 72 h, intracellular, amastigote): 0.31 µM
O=Cc1c(O)ccc2ccccc12 — log2 fold change (HUVEC; RNA sequencing, measured: NES; 75 µM, 24 h; reference: DMSO): -3.03
Cc1sc2ncn(CC(=O)N3CCCC3)c(=O)c2c1-c1cccc(Br)c1 — γ3 conductance level area (NMDA receptor, mouse; single-channel current, outside-out patch; cortical neurons; 50 µM, together with: Ca2+ 1.25 mM): 3%
CCOC(=O)C(C)NC(=O)CN1C(=O)S/C(=C\c2ccc(F)cc2)C1=O (stereo not drawn) — IC50 (Leishmania donovani; parasite growth; 72 h, intracellular, amastigote): > 10 µM
O=S(=O)([O-])CCCSCCCN(CCCSCCCS(=O)(=O)[O-])CCCSCCCS(=O)(=O)[O-].[Na+].[Na+].[Na+] — pCu (Cu(I); competition titration; 10 µM, pH 7.0, ionic strength 0.1, together with: Cu(I) 1 µM; higher = stronger binding): 11.9
CCOC(=O)C(CC)NC(=O)CN1C(=O)S/C(=C\c2ccc([N+](=O)[O-])cc2)C1=O (stereo not drawn) — IC50 (Leishmania major; parasite growth; 72 h, intracellular, amastigote): > 10 µM
CCCC[C@H](NC(=O)COCCOCCNC(=O)CN1CCN(CC(=O)O)CCN(CC(=O)O)CC1)C(=O)N[C@H]1CC(=O)NCCCC[C@@H](C(N)=O)NC(=O)[C@H](Cc2c[nH]c3ccccc23)NC(=O)[C@H](CCCNC(=N)N)NC(=O)[C@@H](Cc2ccccc2)NC(=O)[C@H](Cc2c[nH]cn2)NC1=O [copper-64 labelled] — tissue uptake (C57 mice, intestine; intravenous, 0.37 MBq, 4 h): 1.63 ± 0.26 %ID
CC(=O)[O-].O.O.O.O.[Mn+2].[O-]c1ccc(Br)cc1C=NCCN1CCOCC1 — inhibition zone diameter (Mucor indicus; 20 µL of 100 µM per disc): 12 mm
C[C@@H](N)C1CCN(S(=O)(=O)c2cccc3cnccc23)CC1 — EC50 (ROCK; MLC2 phosphorylation, inhibitor, Western blot; hBMVEC; 1 h, together with: LPA 5 min): 26.3 µM
CCOC(=O)C(NC(=O)CN1C(=O)/C(=C/c2ccc([N+](=O)[O-])cc2)SC1=S)C(C)C (stereo not drawn) — IC50 (Leishmania donovani; parasite growth; 72 h, intracellular, amastigote): > 10 µM
NS(=O)(=O)c1ccc(NC(=O)NN[C@@H]2O[C@H](CO)[C@@H](O)[C@H](O)[C@H]2O)cc1 — hemolysis (rabbit erythrocytes; 8 µg/mL, 3 h; reference: complete lysis): 0%

Repeated from above:
Cn1c(=O)oc2ccc(-c3ccc(CC(C#N)NC(=O)C4CNCCCO4)c(F)c3)cc21 (stereo not drawn) — ALT increased incidence (human; oral, 40 mg once daily, TEAE, multiple ascending dose): 11.1%
